# Measured values collected from several papers.
# Protocols differ between the studies behind these lines. pIC50: −log10 of the molar value.
SMILES,organism,assay,test system,setting,how to read,measurement,result
CC(C)Cc1nnc2c(C(=O)NC3c4ccccc4-c4ccccc43)cccn12,Escherichia coli,broth microdilution,MB5746 rpoZ Δ23-91 frameshift,,reference: mutant over wild type,MIC ratio,> 32
CCc1nc(N)nc(N)c1C#CCc1cc(OC)cc(-c2ccc(C(=O)O)cc2)c1,Staphylococcus aureus,,MRSA isolate UCH 121,,,MIC,10 µg/mL
Nc1c(C(=O)Nc2cc(Cl)ccc2Cl)sc2nc(-c3cccs3)ccc12,Escherichia coli,,,,,MIC50,80 µM
CCc1nc(N)nc(N)c1C#CCc1cc(OC)c(OC)c(-c2ccncc2)c1,Staphylococcus aureus,,MRSA isolate UCH 127,,,MIC,0.312 µg/mL
Oc1ccc(C2NCCc3c2[nH]c2ccc(Cl)cc32)cc1O (stereo not drawn),dengue virus 2,"viral replication, plaque reduction","BHK-21, NGC",,,pIC50,> 6.00
CCCCCCC1c2ccc(O)cc2Oc2cc(O)ccc21,Shigella flexneri,,ATCC 12022,added: PMBN 25 µg/mL,,MIC,1.7 µg/mL
COC(=O)c1ccc(Cl)cc1NC(=O)CSc1ncc(S(=O)(=O)c2ccc(Br)cc2)c(=O)[nH]1,dengue virus 2,"viral replication, single-cycle viral yield",New Guinea C,10 µM,,inhibition,> 90%
CCNC(=O)C(CCCCNC(=O)CCOCCOCCOCCOCCNC(=O)CCNc1ccc(-c2nc3ccc(C)cc3s2)cc1)NC(=O)C(CCCCNC(=O)CCOCCOCCOCCOCCNC(=O)CCNc1ccc(-c2nc3ccc(C)cc3s2)cc1)NC(=O)C(CCCCNC(=O)CCOCCOCCOCCOCCNC(=O)CCNc1ccc(-c2nc3ccc(C)cc3s2)cc1)NC(=O)C(CCCCNC(=O)CCOCCOCCOCCOCCNC(=O)CCNc1ccc(-c2nc3ccc(C)cc3s2)cc1)NC(=O)CCOCCOCCOCCOCCNC(=O)CCNc1ccc(-c2nc3ccc(C)cc3s2)cc1 (stereo not drawn),HIV-1,"SEVI-enhanced infection, luciferase reporter","TZM-bl, IIIB",,,pIC50,~6.70
CCCc1nn2c(=O)cc(CSc3nc(-c4ccc(C)cc4)nc4cc(=O)[nH]n34)nc2s1,dengue virus 2,"viral replication, plaque reduction","BHK-21, NGC",,,pIC50,5.00 to 6.00
CSc1nc(Cl)cc(Sc2nnc(-c3cc(C(F)(F)F)cc(C(F)(F)F)c3)[nH]2)n1,Escherichia coli,,MC4100,"42 °C, without PMBN",,MIC,> 566 µg/mL
CCc1nc(N)nc(N)c1C#C[C@H](C)c1cc(OC)cc(-c2ccc(C(=O)O)cc2)c1,Staphylococcus aureus,,MRSA isolate UCH 121,,,MIC,5 µg/mL
Cc1ccc(CCNC(=O)c2cnn3c(O)c(Cc4cc(C)ccc4C)c(C)nc23)cc1,dengue virus 2,"viral replication, single-cycle viral yield",New Guinea C,5 µM,,inhibition,> 90%

# Excerpt of the above:
SMILES,organism,assay,test system,setting,how to read,measurement,result
Nc1c(C(=O)Nc2cc(Cl)ccc2Cl)sc2nc(-c3cccs3)ccc12,Escherichia coli,,,,,MIC50,80 µM
